# Experimental data of several laboratories.
# Each line is one published result; not all experiments were run side by side. Numbers after ± are the reported error.
Compound,test,system,conditions,scale,AUC(0-t)
O=C(O)c1cc(/N=N/c2ccc(S(=O)(=O)Nc3ccccn3)cc2)ccc1O,LC-MS,"human, plasma","oral, 1000 mg, day 1",,67300 ng·h/mL
CC[C@H](C)[C@@H]([C@@H](CC(=O)N1CCC[C@H]1[C@H](OC)[C@@H](C)C(=O)N[C@@H](Cc1ccccc1)C(=O)NCCCO)OC)N(C)C(=O)[C@@H](NC(=O)[C@H](C(C)C)N(C)C)C(C)C,,"human patients, plasma","intravenous, 36 mg/m², cycle 1 geometric mean",,1540 ng·h/mL
COC(=O)N[C@@H](C)CNc1nccc(-c2cn(C(C)C)nc2-c2cc(Cl)cc(NS(C)(=O)=O)c2F)n1,,"human patients, plasma","oral, 450 mg twice daily, day 1, single dose, median, with: binimetinib 45 mg once daily",,26600 ng·h/mL
Cn1cncc1[C@@](N)(c1ccc(Cl)cc1)c1ccc2c(c1)c(-c1cccc(Cl)c1)cc(=O)n2C,,human patients,"oral, 200 mg/m2, first dose, cycle 1, median",,4800 ng·h/mL
CN1CCC(COc2cnc(-c3cccc(Cn4nc(-c5cccc(C#N)c5)ccc4=O)c3)nc2)CC1,,human,"500 mg, day 1, single dose alone, geometric mean",,18300 ng·h/mL
CC(C)n1c(Nc2cccnc2)nc2cnc(Nc3ccc(N4CCN(C)CC4)cc3)nc21,,"human, male, plasma","oral, 150 mg, day 1, single dose alone",,1370 ng·h/mL
C#C[C@]1(CO)O[C@@H](n2cnc3c(N)nc(F)nc32)C[C@@H]1O,,"human, fed, plasma","oral, 30 mg, geometric mean",,3.43 µM·h
CC(C)NC(=O)COc1cccc(-c2nc(Nc3ccc4[nH]ncc4c3)c3ccccc3n2)c1,,"human, male, fed, plasma","oral, 200 mg once daily, day 8, geometric mean, with: raltegravir",,13700 ng·h/mL
CCN1CCN(Cc2ccc(Nc3ncc(F)c(-c4cc(F)c5nc6n(c5c4)[C@H](C)CCC6)n3)nc2)CC1,,"human, plasma","50 mg single dose, mean",,1420 ng·h/mL
N#CN1C[C@H](n2nc(-c3ccc(Oc4ccc(Cl)cn4)cc3)c(C(N)=O)c2N)CCC12CC2,,"human, fed, plasma","oral, 600 mg",,19400 ± 6500 ng·h/mL
Cc1cc(-c2nnc(N)nc2-c2ccc(F)cc2)cc(Cl)n1,,"human patients, plasma","oral, 150 mg capsule once daily, multiple doses, arithmetic mean",,21600 ng·h/mL
CCCn1cc(C)c2c(=O)[nH]c(-c3cc(S(=O)(=O)N4CCN(CC)CC4)ccc3OCC)nc21,,"human, plasma","oral, 100 mg, with: alcoholic beverage 0.5 g/kg",,294 ± 184 ng·h/mL
CN(C(=O)C(C)(C)c1cc(C(F)(F)F)cc(C(F)(F)F)c1)c1cnc(N2C[C@H]3COCCN3C[C@H]2CO)cc1-c1ccc(F)cc1[14CH3],refers to: total radioactivity,"human, plasma","oral, 120 mg",,19400 ng equiv·h/mL
CCNCc1cc(Nc2ccnc3cc(Cl)ccc23)ccc1O,,"human, both sexes, plasma","oral, dose not given, non-fixed combination",,38000 ng·h/mL
CNC(=O)n1ccc2cc(Oc3ccnc(NC(=O)c4ccc(C5CCN(CCO)CC5)cc4)c3)c(OCCOC)cc21,,"healthy human, plasma","oral, 35 mg, fasted",,126 ng·h/mL
O=C(O)CCC(=O)O.[2H]C([2H])([2H])Oc1cc(C)c2[nH]ccc2c1CN1CC[C@@H](C2CC2)C[C@H]1c1ccc(C(=O)O)cc1,"LC-MS/MS, geometric mean","human, plasma","50 mg, single dose, fasting",,31700 ng·h/mL
Cl.[2H]C([2H])([2H])CC(=O)c1cnc(NC(=O)C2CC2)cc1Nc1cccc(-c2ncn(C([2H])([2H])[2H])n2)c1OC,geometric mean,human,"oral, 25 mg single dose, fasted, liquid",,2110 ng·h/mL
CC(C)c1nc(N(C)S(C)(=O)=O)nc(-c2ccc(F)cc2)c1/C=C/[C@@H](O)C[C@@H](O)CC(=O)O,,"human, plasma","oral, 20 mg, day 2, geometric mean, alone",,46.2 ng·h/mL
C[C@H]1CN(C(=O)CC#N)[C@]12CCN(c1ncnc3[nH]ccc13)C2,,"healthy human, plasma","oral, 6 mg single, median",,197 ng·h/mL
CC(=O)O[C@H]1C(=O)[C@@]2(C)[C@H]([C@H](OC(=O)c3ccccc3)[C@]3(O)C[C@H](OC(=O)[C@H](O)[C@@H](NC(=O)c4ccccc4)c4ccccc4)C(C)=C1C3(C)C)[C@]1(OC(C)=O)CO[C@@H]1C[C@@H]2O,noncompartmental analysis,"human cancer patients, plasma","intravenous infusion, 60 mg/m^2, cycle 1 day 1, with: daily oral co-medication",,2680 ng·h/mL
NC1(C(=O)N[C@@H](CCO)c2ccc(Cl)cc2)CCN(c2nc[nH]c3nccc2-3)CC1,,"human patients, plasma","dose not given, cohort 160/320, cycle 2, geometric mean",,1330 ng·h/mL
CC(=O)N1CCC(Nc2cc(C(=O)NC[C@H](O)CN3CCc4ccccc4C3)ncn2)CC1,,human,"oral, 300 mg, geometric mean",,5190 ng·h/mL
C=CC(=O)N(C)CCOc1c(N)ncnc1-c1cc(F)cc(NC(=O)c2ccc(C3CC3)cc2F)c1C,,"human, whole blood","oral, 600 mg, single ascending dose",,1160 ng·h/mL
CO[C@H]1CC[C@H](N2C(=O)CNc3ncc(-c4ccc(C(C)(C)O)nc4)nc32)CC1,,"human, plasma","oral, 60 mg, day -1, geometric mean",,2080 ng·h/mL
NC(=S)NN=Cc1ncccc1N,,"human, plasma","intravenous, 50 mg, geometric mean",,784 ng·h/mL
CO[C@@H]1[C@H](OC(=O)N2CC(CCN3CCOCC3)C2)CC[C@]2(CO2)[C@H]1[C@@]1(C)O[C@@H]1CC=C(C)C,,"humans, plasma","subcutaneous, 0.2 mg twice weekly, fifth dose",,0.26 ± 0.14 ng·h/mL
[H]/N=C(/N)c1ccc(NCc2nc3cc(C(=O)N(CCC(=O)O)c4ccccn4)ccc3n2C)cc1,,"healthy human subjects, plasma","oral, 150 mg, dabigatran etexilate alone, geometric mean",,970 ng·h/mL
Cc1cc(C)c(CNC(=O)c2cc(Cl)c3c(c2C)O[C@@](C)([C@H]2CC[C@H](N(C)C)CC2)O3)c(=O)[nH]1,geometric LS mean,"healthy male humans, plasma","oral, dose not given, with: itraconazole",,3110 ng·h/mL
Cc1[nH]c(/C=C2\C(=O)Nc3ccc(F)cc32)c(C)c1C(=O)N[C@H]1CCN(C(=O)N(C)C)C1,,"human patients, plasma","oral, 100 mg single dose, with: everolimus 5 mg",,4300 ± 2170 ng·h/mL
C=CCn1c(=O)c2cnc(Nc3ccc(N4CCN(C)CC4)cc3)nc2n1-c1cccc(C(C)(C)O)n1,,"human, plasma","oral, 125 mg twice daily, cycle 1 day 17, geometric mean, with: durvalumab 1500 mg intravenous",,4.53 µM·h
Cn1cc(-c2cn3nccc3c(-c3cnn([C@]4(CC#N)C[C@@H](C#N)C4)c3)n2)cn1,,"healthy humans fasted, plasma","100 mg single dose, geometric mean",,1380 ng·h/mL
N#Cc1cccc(-c2ccc3ncc(-c4cc(F)cc(F)c4)c(N4CCC(N)CC4)c3c2)c1O,,"human, plasma","oral, 20 mg single dose, geometric mean",,2650 ng·h/mL
C[C@H]1[C@@H](O)O[C@@H]2O[C@@]3(C)CC[C@H]4[C@H](C)CC[C@@H]1[C@@]24OO3,,"human, both sexes, plasma","oral, dose not given, non-fixed combination",,1470 ng·h/mL
Cc1ccc(NC(=O)c2ccc(CN3CCN(C)CC3)cc2)cc1Nc1nccc(-c2cncc(-c3oncc3C)c2)n1,,"healthy human volunteers, plasma","oral, 200 mg/day, multiple ascending dose, steady state",,97200 ± 23100 ng·h/mL
COC(=O)N[C@@H](C)CNc1nccc(-c2cn(C(C)C)nc2-c2cc(Cl)cc(NS(C)(=O)=O)c2F)n1,,"human, plasma","oral, 50 mg, geometric mean, with: diltiazem 240 mg once daily",,3500 ng·h/mL
CO[C@H]1C[C@@H]2CC[C@@H](C)[C@@](O)(O2)C(=O)C(=O)N2CCCC[C@H]2C(=O)O[C@H]([C@H](C)C[C@@H]2CC[C@@H](OC(=O)NCCOCCOCCOCCOCCOCCOCCOCCOCCC(=O)N3CCc4cc(Cn5nc(-c6ccc7oc(N)nc7c6)c6c(N)ncnc65)ccc4C3)[C@H](OC)C2)C[C@@H](O)[C@H](C)/C=C(\C)[C@@H](O)[C@@H](OC)C(=O)[C@H](C)C[C@H](C)/C=C/C=C/C=C/1C,,"human, plasma","intravenous, 8 mg, cycle 1 day 15, arithmetic mean",,828 ng·h/mL
CCCOc1ccc(NC(=O)CN2CCN(C)CC2)cc1-c1nc(CC)c(CC)c(=O)[nH]1,,"human, fasting, plasma","oral, 10 mg, with: placebo",,551 ± 81.4 ng·h/mL
COC(=O)c1ccc2c(c1)NC(=O)/C2=C(\Nc1ccc(N(C)C(=O)CN2CCN(C)CC2)cc1)c1ccccc1,,healthy human,"oral, 150 mg single, alone",arithmetic mean,150 ng·h/mL
NC[C@@]1(CC(=O)O)[C@@H]2CC[C@H]3C[C@@H]2[C@@H]1C3,,"human, moderately renal impairment, plasma","dose not given, geometric least squares mean",,3860 ng·h/mL
CN(CC#N)C(=O)C[C@H](Nc1nc2ccccc2[nH]1)c1cccc(C(F)(F)F)c1,,human,"intravenous infusion, 1 mg/kg, 5 mg/mL formulation",,6750 ± 1940 ng·h/mL

# A few entries again:
Compound,test,system,conditions,scale,AUC(0-t)
COC(=O)N[C@@H](C)CNc1nccc(-c2cn(C(C)C)nc2-c2cc(Cl)cc(NS(C)(=O)=O)c2F)n1,,"human, plasma","oral, 50 mg, geometric mean, with: diltiazem 240 mg once daily",,3500 ng·h/mL
O=C(O)c1cc(/N=N/c2ccc(S(=O)(=O)Nc3ccccn3)cc2)ccc1O,LC-MS,"human, plasma","oral, 1000 mg, day 1",,67300 ng·h/mL
CO[C@H]1C[C@@H]2CC[C@@H](C)[C@@](O)(O2)C(=O)C(=O)N2CCCC[C@H]2C(=O)O[C@H]([C@H](C)C[C@@H]2CC[C@@H](OC(=O)NCCOCCOCCOCCOCCOCCOCCOCCOCCC(=O)N3CCc4cc(Cn5nc(-c6ccc7oc(N)nc7c6)c6c(N)ncnc65)ccc4C3)[C@H](OC)C2)C[C@@H](O)[C@H](C)/C=C(\C)[C@@H](O)[C@@H](OC)C(=O)[C@H](C)C[C@H](C)/C=C/C=C/C=C/1C,,"human, plasma","intravenous, 8 mg, cycle 1 day 15, arithmetic mean",,828 ng·h/mL
NC[C@@]1(CC(=O)O)[C@@H]2CC[C@H]3C[C@@H]2[C@@H]1C3,,"human, moderately renal impairment, plasma","dose not given, geometric least squares mean",,3860 ng·h/mL
NC(=S)NN=Cc1ncccc1N,,"human, plasma","intravenous, 50 mg, geometric mean",,784 ng·h/mL
